Results of several laboratories.
Numbered parts are unrelated; each lists some results of a single study. Several values in a cell are separate wells, animals, samples, runs or records. Positions count from the first letter of the parent shown.

Sample 1
Target: Serine/threonine-protein kinase PAK 4 (PAK4, Homo sapiens, UniProt O96013)
UniProt O96013, sequence (whole entry, looked up): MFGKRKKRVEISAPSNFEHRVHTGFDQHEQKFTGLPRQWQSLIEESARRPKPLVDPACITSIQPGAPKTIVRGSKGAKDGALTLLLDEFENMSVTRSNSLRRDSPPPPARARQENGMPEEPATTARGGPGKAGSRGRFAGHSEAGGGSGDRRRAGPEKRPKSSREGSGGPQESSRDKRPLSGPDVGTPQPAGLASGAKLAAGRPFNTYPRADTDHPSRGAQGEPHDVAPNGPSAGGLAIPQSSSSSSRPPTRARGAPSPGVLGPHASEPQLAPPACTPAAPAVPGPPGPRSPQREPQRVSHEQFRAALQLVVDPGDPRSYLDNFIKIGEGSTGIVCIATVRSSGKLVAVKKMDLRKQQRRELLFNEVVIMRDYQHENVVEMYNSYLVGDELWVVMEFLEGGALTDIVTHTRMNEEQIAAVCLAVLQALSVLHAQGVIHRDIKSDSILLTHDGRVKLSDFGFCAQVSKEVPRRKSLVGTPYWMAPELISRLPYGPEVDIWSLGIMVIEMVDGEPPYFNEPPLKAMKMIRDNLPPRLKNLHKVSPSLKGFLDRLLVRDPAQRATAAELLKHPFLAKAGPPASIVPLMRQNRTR
Observed: enzyme activity
Mode: inhibitor
Tested at: 0.5 µM
Reference: control
Structure (SMILES) | remaining activity [%]
COc1ccc(OC)c2c(=S)c3ccccc3[nH]c12 | 102
NCCNc1ncc(C(N)=O)c(Nc2cccc(C(F)(F)F)c2)n1 | 69.3
C#Cc1cccc(Nc2ncnc3cc(OCCOC)c(OCCOC)cc23)c1 | 91.8
Cn1sc(=O)n(Cc2ccccc2)c1=O | 104
O=C1NC(=O)C(c2cn(CCCn3ccnc3)c3ccccc23)=C1Nc1ccccc1 | 97.8
CC(C)[C@H](CO)Nc1nc(Nc2cc(N)cc(Cl)c2)c2ncn(C(C)C)c2n1 | 102
CO[C@H]1C[C@@H]2CC[C@@H](C)[C@@](O)(O2)C(=O)C(=O)N2CCCC[C@H]2C(=O)O[C@H]([C@H](C)C[C@@H]2CC[C@@H](O)[C@H](OC)C2)CC(=O)[C@H](C)/C=C(\C)[C@@H](O)[C@@H](OC)C(=O)[C@H](C)C[C@H](C)/C=C/C=C/C=C/1C | 97.1
COc1cc2nccc(Oc3ccc(NC(=S)NC(=O)c4ccccc4C)cc3)c2cc1OC | 100
Cc1nc(-c2ccccc2)c(-c2ccncc2)o1 | 101
Cc1ccc(Nc2nccc(N(C)c3ccc4c(C)n(C)nc4c3)n2)cc1S(N)(=O)=O | 92
Nc1ncnc2n[nH]c(Nc3ccc(F)cc3)c12 | 104
OCC(O)CCON=C1C(c2c(O)[nH]c3ccccc23)=Nc2ccccc21 (stereo not drawn) | 84.5
O=C1NC(=O)C(c2cn(CCCO)c3ncccc23)=C1c1cnccn1 | 111

Sample 2
Substitution: R74W
Target: ABI1, truncated, D143A, DHFR fusion (Arabidopsis thaliana)
Technique: DHFR PCA, deep sequencing
Medium: yeast
Setting: methotrexate growth selection, single substitutions
Reference: wild-type fitted maximum
Reading: higher = stronger binding
Starting sequence: PYL1, truncated, DHFR fusion (Arabidopsis thaliana); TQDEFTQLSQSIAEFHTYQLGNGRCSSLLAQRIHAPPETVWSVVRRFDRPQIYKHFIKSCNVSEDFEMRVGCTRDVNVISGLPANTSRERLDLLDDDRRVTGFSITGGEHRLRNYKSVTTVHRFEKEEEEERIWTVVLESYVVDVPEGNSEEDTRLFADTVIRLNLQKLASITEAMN
setting | relative binding score [%]
added: (+)-ABA 1.4 µM | -12.4
added: (+)-ABA 0.11 µM | 4.06
added: (+)-ABA 710 µM | -5.97
added: (+)-ABA 4.8 µM | 4.38
added: (+)-ABA 200 µM | -8.21
added: (+)-ABA 0 µM | 0.538

Single results of other studies
Molecule | tested on | test | system | setting | how to read | endpoint | result
CC(=O)N[C@@H](Cc1c[nH]c2ccccc12)C(=O)N[C@@H](CCC(=O)C=[N+]=[N-])C(=O)OC(C)C |  | UPLC-MS/MS | EL4 tumor, C57BL/6 CES1-/- mice, tumor | subcutaneous, 0.3 mg/kg DON equivalent daily, 5 days | higher = more metabolite | pyridoxamine level | 3.28e+06 a.u. and 2.25e+06 a.u. and 5.69e+06 a.u. and 2.48e+06 a.u. and 4.95e+06 a.u. and 3.42e+06 a.u.
C[N+](C)(C)CCCCCC[N+](C)(C)C | mouse MPNST tumor cells | high-content immunofluorescence imaging, item: nuclear SOX9 |  | 10 µM, 12 h, mean of 2 replicates | reference: DMSO control, higher = more nuclear SOX9 | nuclear SOX9 intensity | 113 % of DMSO
CCCCCCCCCC[C@H](C(=O)O)[C@]1(C(=O)O)CCC(=O)O1 | A-375 |  |  | 100 µM, 36 h |  | viability | 107%
PhoQ, residues 284 288 289 292 302 303 SLANIV | PhoP, residues 12 14 15 18 19 VHSCL (Escherichia coli, UniProt P23836) | Sort-seq, item: YFP reporter | E. coli | PhoQ-PhoP variant library, added: 10 µM Mg2+ | reference: high Mg2+ state, higher = stronger signaling | fold induction | 14.7
COc1ccc(Nc2ncc3c(n2)CCN(C(=O)OC(C)(C)C)C3)cc1 |  | AlphaScreen signal, AlphaScreen counter screen | His6 peptide without bromodomain | 50 µM, assay interference check |  | inhibition | 30.8%
CCc1c(C)[nH]c2c1C(=O)C(CN1CCOCC1)CC2 (stereo not drawn) | mouse MPNST tumor cells | high-content immunofluorescence imaging, item: nuclear SOX9 |  | 10 µM, 12 h, mean of 2 replicates | reference: DMSO control, higher = more nuclear SOX9 | nuclear SOX9 intensity | 106 % of DMSO
CC(C)n1cnc(-c2ccc(F)cc2)c1-c1ncc(C(=O)Nc2ccc(N3CCN(C)CC3)cc2)[nH]1 |  | phase 2a clinical trial | patients with idiopathic pulmonary fibrosis | 60 mg once daily, added: standard of care |  | patients with liver injury | 9.1%
C[C@@H]1CN(c2c(F)c(N)c3c(=O)c(C(=O)O)cn(C4CC4)c3c2F)C[C@H](C)N1 | A-375 |  |  | 100 µM, 36 h |  | viability | 25.8%
